Experimental data gathered from unrelated publications.
Protocols differ between the studies behind these lines.
AVPR2: Vasopressin V2 receptor (AVPR2, Homo sapiens, UniProt P30518)
Chain of UniProt P30518 (whole entry, looked up): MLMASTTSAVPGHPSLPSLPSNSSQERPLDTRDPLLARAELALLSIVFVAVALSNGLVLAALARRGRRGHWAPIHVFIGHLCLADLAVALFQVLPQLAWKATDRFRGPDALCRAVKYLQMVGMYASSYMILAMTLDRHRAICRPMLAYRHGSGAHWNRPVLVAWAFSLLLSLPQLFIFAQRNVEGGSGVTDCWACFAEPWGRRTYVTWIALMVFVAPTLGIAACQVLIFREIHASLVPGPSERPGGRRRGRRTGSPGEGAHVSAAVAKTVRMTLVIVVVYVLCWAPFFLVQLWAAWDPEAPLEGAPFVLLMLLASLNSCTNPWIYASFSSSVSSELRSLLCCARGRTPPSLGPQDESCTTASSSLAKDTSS
HTR1F: 5-hydroxytryptamine receptor 1F (HTR1F, Homo sapiens, UniProt P30939)
Chain of UniProt P30939 (whole entry, looked up): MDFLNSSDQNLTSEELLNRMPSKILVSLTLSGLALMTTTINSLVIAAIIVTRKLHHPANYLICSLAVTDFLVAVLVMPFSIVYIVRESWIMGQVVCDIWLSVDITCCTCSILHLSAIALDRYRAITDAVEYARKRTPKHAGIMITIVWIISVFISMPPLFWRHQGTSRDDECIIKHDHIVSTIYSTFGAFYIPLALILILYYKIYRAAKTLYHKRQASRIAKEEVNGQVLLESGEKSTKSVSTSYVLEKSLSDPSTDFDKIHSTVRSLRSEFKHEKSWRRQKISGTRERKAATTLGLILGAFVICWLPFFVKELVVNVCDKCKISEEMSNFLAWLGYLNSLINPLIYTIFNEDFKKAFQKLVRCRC
MTNR1A: Melatonin receptor type 1A (MTNR1A, Homo sapiens, UniProt P48039)
Chain of UniProt P48039 (whole entry, looked up): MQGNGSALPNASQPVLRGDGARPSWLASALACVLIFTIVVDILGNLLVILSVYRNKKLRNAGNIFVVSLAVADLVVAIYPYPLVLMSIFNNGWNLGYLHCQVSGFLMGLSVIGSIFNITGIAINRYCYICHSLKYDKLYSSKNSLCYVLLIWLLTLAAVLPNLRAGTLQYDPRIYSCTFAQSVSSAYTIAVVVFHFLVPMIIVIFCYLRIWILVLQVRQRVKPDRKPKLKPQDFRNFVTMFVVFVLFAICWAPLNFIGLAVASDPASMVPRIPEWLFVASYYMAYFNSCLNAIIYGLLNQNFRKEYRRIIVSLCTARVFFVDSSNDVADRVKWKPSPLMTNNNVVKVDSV
MTNR1B: Melatonin receptor type 1B (MTNR1B, Homo sapiens, UniProt P49286)
Chain of UniProt P49286 (whole entry, looked up): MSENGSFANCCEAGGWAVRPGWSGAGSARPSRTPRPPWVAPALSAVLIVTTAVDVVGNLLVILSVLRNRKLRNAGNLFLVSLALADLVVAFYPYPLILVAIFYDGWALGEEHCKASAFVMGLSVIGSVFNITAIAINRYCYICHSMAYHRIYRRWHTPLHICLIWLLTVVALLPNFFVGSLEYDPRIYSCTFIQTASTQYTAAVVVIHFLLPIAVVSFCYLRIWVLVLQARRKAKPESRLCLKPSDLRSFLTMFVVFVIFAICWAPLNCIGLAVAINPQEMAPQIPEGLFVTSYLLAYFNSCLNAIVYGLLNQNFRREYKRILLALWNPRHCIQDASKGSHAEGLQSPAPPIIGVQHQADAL
Chain of UniProt P41968 (whole entry, looked up): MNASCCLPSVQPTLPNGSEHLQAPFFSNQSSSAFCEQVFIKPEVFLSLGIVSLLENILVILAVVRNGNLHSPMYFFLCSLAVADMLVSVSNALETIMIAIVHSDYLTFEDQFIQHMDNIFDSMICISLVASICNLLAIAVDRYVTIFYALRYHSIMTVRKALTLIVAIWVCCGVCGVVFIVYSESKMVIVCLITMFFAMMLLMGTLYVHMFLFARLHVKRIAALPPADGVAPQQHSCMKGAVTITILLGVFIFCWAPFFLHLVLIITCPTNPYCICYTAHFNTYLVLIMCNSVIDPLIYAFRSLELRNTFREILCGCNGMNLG
Chain of UniProt P0DMS8 (whole entry, unmodified, looked up): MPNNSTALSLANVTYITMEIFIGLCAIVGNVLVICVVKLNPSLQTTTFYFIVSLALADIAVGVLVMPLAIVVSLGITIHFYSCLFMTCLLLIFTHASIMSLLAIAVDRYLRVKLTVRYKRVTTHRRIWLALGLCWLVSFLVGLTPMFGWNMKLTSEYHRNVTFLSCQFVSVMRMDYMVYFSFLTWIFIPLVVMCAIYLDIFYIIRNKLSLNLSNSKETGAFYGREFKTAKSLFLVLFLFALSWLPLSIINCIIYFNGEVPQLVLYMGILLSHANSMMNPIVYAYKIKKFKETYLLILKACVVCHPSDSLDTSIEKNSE
Chain of UniProt Q9NQS5 (whole entry, looked up): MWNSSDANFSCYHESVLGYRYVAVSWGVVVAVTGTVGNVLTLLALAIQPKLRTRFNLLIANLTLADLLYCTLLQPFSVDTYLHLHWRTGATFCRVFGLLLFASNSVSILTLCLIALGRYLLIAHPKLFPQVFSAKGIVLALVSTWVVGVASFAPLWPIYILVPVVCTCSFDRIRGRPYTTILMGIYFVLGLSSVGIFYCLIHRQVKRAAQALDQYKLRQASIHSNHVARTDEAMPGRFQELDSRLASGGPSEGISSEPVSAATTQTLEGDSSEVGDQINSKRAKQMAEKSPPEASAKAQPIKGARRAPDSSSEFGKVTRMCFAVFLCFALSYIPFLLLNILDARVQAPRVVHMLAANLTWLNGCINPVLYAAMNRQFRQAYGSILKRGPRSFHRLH
Chain of UniProt Q16581 (whole entry, looked up): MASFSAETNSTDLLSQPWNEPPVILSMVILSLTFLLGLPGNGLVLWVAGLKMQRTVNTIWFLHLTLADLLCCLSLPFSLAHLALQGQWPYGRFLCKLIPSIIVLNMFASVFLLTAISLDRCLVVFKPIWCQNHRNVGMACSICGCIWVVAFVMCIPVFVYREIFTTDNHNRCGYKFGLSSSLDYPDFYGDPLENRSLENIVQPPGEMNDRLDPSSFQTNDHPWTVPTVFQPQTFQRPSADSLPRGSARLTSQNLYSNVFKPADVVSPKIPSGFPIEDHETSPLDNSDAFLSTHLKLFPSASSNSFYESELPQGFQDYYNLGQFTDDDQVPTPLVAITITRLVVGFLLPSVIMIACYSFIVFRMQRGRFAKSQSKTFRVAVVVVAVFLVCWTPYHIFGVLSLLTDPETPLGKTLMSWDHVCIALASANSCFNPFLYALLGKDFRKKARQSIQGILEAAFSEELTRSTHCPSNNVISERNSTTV
Chain of UniProt P30542 (whole entry, looked up): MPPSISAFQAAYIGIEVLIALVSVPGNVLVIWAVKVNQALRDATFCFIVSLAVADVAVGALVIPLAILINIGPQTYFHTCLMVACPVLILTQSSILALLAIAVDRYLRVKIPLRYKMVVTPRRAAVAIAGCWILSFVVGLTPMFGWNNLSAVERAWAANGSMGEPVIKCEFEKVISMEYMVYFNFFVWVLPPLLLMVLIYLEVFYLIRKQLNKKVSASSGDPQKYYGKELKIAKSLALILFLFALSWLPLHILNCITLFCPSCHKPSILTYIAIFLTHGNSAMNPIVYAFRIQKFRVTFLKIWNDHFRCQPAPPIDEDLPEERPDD

With `CC1=NN(/C(=N/c2nnc(C)s2)Nc2ccc(C)c(C)c2)C(c2ccc(-c3ccc(C(F)(F)F)cc3)cc2)S1` (stereo not shown) the EC50 was 20.1 µM (AVPR2; cAMP, positive allosteric modulator).
With `CN(C)CCCN1c2ccccc2Sc2ccc(Cl)cc21` the EC50 was 0.111 µM (HTR1F; G protein activation, agonist, BRET).
With `CC1=NN(/C(=N\c2ccc(Cl)cc2)Nc2nnc(C)s2)C(c2ccc(C)cc2)S1` (stereo not shown) the EC50 was 22.2 µM (AVPR2; cAMP, positive allosteric modulator).
With `COc1ccc2c(c1)N(Cc1cc(C)ncn1)CCO2` the EC50 was 0.00206 µM (MTNR1A; cAMP, agonist, luciferase).
With `NC1=NCC2c3ccccc3Cc3ccccc3N12` (stereo not shown) the EC50 was 0.705 µM (HTR1F; G protein activation, agonist, BRET).
With `COc1cc2c(CCNC(C)=O)c[nH]c2cc1I` the EC50 was 0.00525 µM (MTNR1B; β-arrestin recruitment, agonist).
`CC(C)=CCNc1ncnc2c1ncn2[C@@H]1O[C@H](CO)[C@@H](O)[C@H]1O` has an EC50 of 0.9 µM (ADORA1 (Homo sapiens, UniProt P30542); G protein activation, agonist).
`CN1CCC(=C2c3ccccc3C=Cc3ccccc32)CC1` has an EC50 of 0.423 µM (HTR1F; G protein activation, agonist, BRET).
With `COC(=O)c1sc(N(C)Cc2ccc3c(c2)OCO3)nc1Cl` the EC50 was 0.00997 µM (MTNR1A; cAMP, agonist, luciferase).
`CC(C)C[C@H](NC(=O)[C@@H](N)[C@@H](C)O)C(=O)N[C@@H](CCC(N)=O)C(=O)N1CCC[C@H]1C(=O)N1CCC[C@H]1C(=O)N[C@@H](C)C(=O)N[C@@H](CO)C(=O)N[C@@H](CO)C(=O)N[C@@H](CCCNC(=N)N)C(=O)N[C@H](CCCNC(=N)N)C(=O)N[C@@H](CCCNC(=N)N)C(=O)N[C@@H](Cc1c[nH]cn1)C(=O)N[C@@H](Cc1ccccc1)C(=O)N[C@@H](Cc1c[nH]cn1)C(=O)N[C@@H](Cc1c[nH]cn1)C(=O)N[C@@H](C)C(=O)N[C@@H](CC(C)C)C(=O)N1CCC[C@H]1C(=O)N1CCC[C@H]1C(=O)N[C@H](C)C(=O)N[C@@H](CCCNC(=N)N)C(=O)O` gave an EC50 of 0.00599 µM (C3AR1 (Homo sapiens, UniProt Q16581); β-arrestin recruitment, agonist, BRET).
With `COC(=O)c1sc(N(C)Cc2scnc2C)nc1Cl` the EC50 was 0.0404 µM (MTNR1A; cAMP, agonist, luciferase).
`CCCCCCCCN(C)c1cc(=O)[nH]c(=O)[nH]1` gave an EC50 of 0.038 µM (GPR84 (Homo sapiens, UniProt Q9NQS5); cAMP, agonist).
`CCc1ccc2scc(CCNC(C)=O)c2c1` gave an EC50 of 0.012 µM (MTNR1B; β-arrestin recruitment, agonist).
`COC(=O)c1cc(Cn2c(=O)ccn2C)c(C)s1` has an EC50 of 0.0517 µM (MTNR1A; cAMP, agonist, luciferase).
For `CN(C)c1ncnc2c1ncn2[C@@H]1O[C@H](CO)[C@@H](O)[C@H]1O`, the EC50 was 17 µM (ADORA3 (Homo sapiens, UniProt P0DMS8, I253A); G protein activation, agonist).
The EC50 of `COc1ccc(CNc2cccnc2)c(Br)c1` is reported as 0.0479 µM (MTNR1A; cAMP, agonist, luciferase).
`COc1cc(I)c2[nH]cc(CCNC(C)=O)c2c1` has an EC50 of 0.11 µM (MTNR1B; cAMP, agonist, TR-FRET).
`CC(=O)N[C@@H](C)c1cc(Cl)ccc1C1CCN(C(=O)[C@@H]2CN(C(C)(C)C)C[C@H]2c2ccc(F)cc2F)CC1` gave an EC50 of greater than 1 µM (MC3R (Homo sapiens, UniProt P41968); cAMP, agonist).
For `Clc1ccccc1CNc1cccc(-c2nnc[nH]2)c1`, the EC50 was 1.26 µM (MTNR1A; cAMP, agonist, luciferase).

Some of these lines once more:
With `CC1=NN(/C(=N/c2nnc(C)s2)Nc2ccc(C)c(C)c2)C(c2ccc(-c3ccc(C(F)(F)F)cc3)cc2)S1` (stereo not shown) the EC50 was 20.1 µM (AVPR2; cAMP, positive allosteric modulator).
